Measured values gathered from unrelated publications.
Protocols differ between the studies behind these lines. Several values in a cell are separate wells, animals, samples, runs or records. ± marks the error that the study gave.
Voltage-dependent P/Q-type calcium channel subunit alpha-1A: Voltage-dependent P/Q-type calcium channel subunit alpha-1A (Homo sapiens, UniProt O00555)
TOP2B: DNA topoisomerase 2-beta (TOP2B, Homo sapiens, UniProt Q02880)
ADRA2C: Alpha-2C adrenergic receptor (ADRA2C, Homo sapiens, UniProt P18825)
UCHL1: Ubiquitin carboxyl-terminal hydrolase isozyme L1 (UCHL1, Homo sapiens, UniProt P09936)
BEST1: BEST1 (Homo sapiens, UniProt O76090)
T1: G-quadruplex DNA (Homo sapiens); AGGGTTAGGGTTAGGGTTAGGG

Structure (SMILES)	target or system	test	system	conditions	scale	endpoint	result
CCCN1CCCC[C@H]1C(=O)Nc1c(C)cccc1C	Voltage-dependent P/Q-type calcium channel subunit alpha-1A	ion current, antagonist	HEK293	10 µM	–	inhibition	5%
CC[C@@H]1[C@H](F)C(=O)N[C@@H]1COc1nccc2cc(C(N)=O)c(OC)cc12	EPHA7 (Homo sapiens, UniProt Q15375)	ATP probe binding, KiNativ profiling, refers to: activation loop probe site	THP-1 cell lysate	0.2 mM	–	inhibition	20.8%
Cc1nc(CSc2nc(SCc3ccc(C(C)C)cc3)nc(=O)[nH]2)cs1	TOP2B	decatenation	–	15.6 µM	–	mean decatenated DNA	90.8%
COc1ccc2c(c1)C(CC(=O)NCCNC(=O)CCn1c(=O)[nH]c(=O)c3ccccc31)CC2=O (stereo not shown)	TNKS (Homo sapiens, UniProt O95271)	enzyme activity, inhibitor	–	–	–	ligand efficiency	0.42
C=CC(=O)N1CCC(COCC(=O)N2CCN(c3nc(-c4cnc(N)nc4C(F)F)nc(N4CCOC[C@@H]4C)n3)CC2)CC1	NEK10 (Homo sapiens, UniProt Q6ZWH5)	KINOMEscan	–	1 µM	–	remaining binding	100%
C#CCCC1(CC[C@H](NC(=O)NCCCCCCNC(=O)NCCNC(=O)COc2cccc([C@@H](CCc3ccc(OC)c(OC)c3)OC(=O)[C@@H]3CCCCN3C(=O)C(=O)C(C)(C)CC)c2)C(N)=O)N=N1.O=C(O)C(F)(F)F	FKBP1A (Homo sapiens, UniProt P62942)	photoaffinity labeling, in-gel fluorescence, refers to: Alexa Fluor 647 click label	–	2 µM, UV irradiation 365 nm	higher = more labeling	probe labeling fluorescence	39400 a.u.
COc1ccc(Cl)cc1N1CCN(Cc2cccnc2Oc2ccc(-c3c(C)c(=O)[nH]c(=O)n3C)c(C)c2)CC1	ADRA2C	binding, radioligand binding	–	with: [3H]rauwolscine	relative to: Ki alpha2A over Ki alpha2C	selectivity ratio	1
Cn1ncc(S(=O)(=O)NCc2ccccc2Cn2cncn2)c1C(=O)O	malate dehydrogenase	enzyme activity, inhibitor	–	200 µM, pH 7.0, 1% DMSO, aggregation counter-screen	–	remaining activity	93%
CCCCCCCC(=O)c1cc(OC)c(OC)c(OC)c1CC(=O)OCC	THRA (Homo sapiens, UniProt P10827)	reporter gene, Gal4 hybrid reporter	–	10 µM	relative to: vehicle	activation	0.61 fold
N#CC(=Cc1ccc(F)c([N+](=O)[O-])c1)C(=O)Nc1ccc(F)cc1	UCHL1	covalent, intact protein LC-MS	–	12.5 µM	–	labelling	43.8%
O=c1nc(SCc2cc(F)cc(C(F)(F)F)c2)nc(SCc2ccc3nc(Cl)ccc3c2)[nH]1	TOP2B	decatenation	–	7.8 µM, replicate 2	–	decatenated DNA	100%
Cc1ccnc([18F])c1-c1cccc(N2C[C@H](N3CCN(C(=O)c4nccs4)CC3)CC2=O)c1	Monoglyceride lipase (Macaca mulatta, UniProt H9ESL3)	PET Scatchard plot	rhesus monkey, brain CB	baseline	–	Bmax	41.9 nmol/g
CCN1CCC[C@H]1CNC(=O)c1c(O)c(Cl)cc(Cl)c1OC	Probable G-protein coupled receptor 150 (GPR150, Homo sapiens, UniProt Q8NGU9)	β-arrestin recruitment, TANGO luminescence, refers to: GPR150	–	concentration not given	relative to: basal luminescence	log2 fold change	0.161
Cc1ccc(-n2nc(Br)cc2C(=O)NCc2nocc2C(=O)O)cc1	malate dehydrogenase	enzyme activity, inhibitor	–	200 µM, pH 7.0, 1% DMSO, aggregation counter-screen	–	remaining activity	100%
Cc1cc(Oc2ncccc2CN2CCN(c3ccccc3Cl)CC2)ccc1-c1c(C)c(=O)[nH]c(=O)n1C	ADRA2C	binding, radioligand binding	–	with: [3H]rauwolscine	relative to: Ki alpha2A over Ki alpha2C	selectivity ratio	7
N#CC(=Cc1ccc(Cl)c([N+](=O)[O-])c1)C(=O)NCc1ccco1	UCHL1	covalent, intact protein LC-MS	–	12.5 µM	–	labelling	17%
C=CC(=O)N1CCC[C@@H](n2nc(-c3ccc(Oc4ccccc4)cc3)c3c(N)ncnc32)C1	PTK2 (Homo sapiens, UniProt Q05397)	–	–	1 µM	–	remaining activity	119%
Cc1cc(Oc2ncccc2CN2CCN(c3cc(Cl)cc(Cl)c3)CC2)ccc1-c1c(C)c(=O)[nH]c(=O)n1C	ADRA2C	binding, radioligand binding	–	with: [3H]rauwolscine	relative to: Ki alpha2B over Ki alpha2C	selectivity ratio	3
CN(C)C(=O)C(CCN1CCC(O)(c2ccc(Cl)cc2)CC1)(c1ccccc1)c1ccccc1	Calcium-activated potassium channel subunit alpha-1, with LRRC26 γ1 subunit (KCNMA1, Homo sapiens, UniProt Q12791)	BK channel conductance, inside-out patch clamp	–	BKα/γ1, Vm 80 mV, nominally Ca2+-free	–	Hill coefficient	0.675 ± 0.064
CCN1CCN(c2cc(N3CCN(CC)CC3)nc(NCCNc3ccnc4cc(Cl)ccc34)n2)CC1	Nuclear receptor subfamily 1 group I member 3 (Homo sapiens, UniProt Q14994)	reporter gene, Gal4 hybrid reporter	–	20 µM	relative to: vehicle	activation	1.5 fold
CC(=O)N[C@H](C(=O)N1C[C@H](O)C[C@H]1C(=O)NCc1ccc(-c2scnc2C)cc1)C(C)(C)SCCCCCCNC(=O)C[C@@H]1N=C(c2ccc(Cl)cc2)c2c(sc(C)c2C)-n2c(C)nnc21	Bromodomain-containing protein 4, BD1 (BRD4, Homo sapiens, UniProt O60885)	ITC	–	concentration not given, 25 °C, compound in cell, protein in syringe	–	binding stoichiometry	0.73 ± 0.03
CN[C@H]1CC[C@@H](c2ccc(Cl)c(Cl)c2)c2ccccc21	Voltage-dependent P/Q-type calcium channel subunit alpha-1A	ion current, antagonist	HEK293	10 µM	–	inhibition	94%

Structure (SMILES)	target or system	test	system	conditions	scale	endpoint	result
O=C(c1ccc(F)cc1)N1CCC2(CC1)N(C1CCCC1)C(=O)C[S+]2[O-] (stereo not shown)	UCHL1	covalent, intact protein LC-MS	–	12.5 µM	–	labelling	12.2%
O=C(O)c1ccc([N+](=O)[O-])cc1	BEST1	whole-cell patch clamp	HEK293 transiently expressing channel	concentration not given, membrane potential -40 mV	–	current density	-27.9 pA/pF and -28.4 pA/pF and -16.2 pA/pF and -48 pA/pF and -40.1 pA/pF and -38 pA/pF and -16.4 pA/pF
CSCC(NS(=O)(=O)c1cnccc1C(=O)O)c1ccccc1Cl (stereo not shown)	malate dehydrogenase	enzyme activity, inhibitor	–	200 µM, pH 7.0, 1% DMSO, aggregation counter-screen	–	remaining activity	91%
CC[C@@H]1C(=O)OC[C@@H]1Cc1cncn1C.Cl	Voltage-dependent P/Q-type calcium channel subunit alpha-1A	ion current, antagonist	–	30 µM	–	inhibition	10%
CCCS(=O)(=O)Nc1ccc(F)c(C(=O)c2cn(C(=O)OCc3cc(P(=O)(O)O)ccc3OP(=O)(O)O)c3ncc(-c4ccc(Cl)cc4)cc23)c1F	Alkaline phosphatase, placental type (Homo sapiens, UniProt P05187)	substrate	–	100 µM, pH 7.6, 37 °C	–	drug formation rate	1.15 pmol/min
COc1cc(/C=C/c2ccc(O)cc2)cc(OC)c1	O-methyltransferase (Sorghum bicolor, UniProt A0A1B6PFV1)	ITC one-site model	–	with: sinefungin	–	cooperativity factor	0.41
CCCCn1/c(=C/C=C/C2=[N+](CCC[N+](C)(C)C)c3ccc(Br)cc3C2(C)C)c2cccc3cccc1c32	T1, G-quadruplex DNA (Homo sapiens)	CD titration	–	KCl 50 mM, strong ICD	–	binding	binds
N#CC(=Cc1ccc(Cl)cc1Cl)C(=O)Nc1nccs1	UCHL1	covalent, intact protein LC-MS	–	12.5 µM	–	labelling	31.4%
CC(Cc1ccc(NS(=O)(=O)c2cc(Cl)cc(Cl)c2O)cc1)C(=O)O (stereo not shown)	malate dehydrogenase	enzyme activity, inhibitor	–	200 µM, pH 7.0, 1% DMSO, aggregation counter-screen	–	remaining activity	99%
CC[C@H](C)[C@H](NC(=O)[C@H](CCCCN)NC(=O)[C@H](CCCNC(=N)N)NC(=O)[C@H](CC(C)C)NC(=O)[C@H](CCC(N)=O)NC(=O)[C@H](C)NC(=O)[C@H](C)NC(=O)[C@H](Cc1ccccc1)NC(=O)[C@H](CCC(=O)O)NC(=O)[C@@H]1CCCN1C(=O)[C@@H]1CCCN1C(=O)[C@H](CC(C)C)NC(=O)[C@H](CCC(=O)O)NC(=O)[C@H](C)NC(C)=O)C(=O)NCC(=O)N[C@@H](CC(=O)O)C(=O)N[C@@H](CCCCN)C(=O)N[C@H](C(=O)N[C@@H](Cc1ccc(O)cc1)C(=O)N[C@@H](CS)C(N)=O)C(C)C	BCL2L2 (Homo sapiens, UniProt Q92843)	fluorescence polarisation competition	–	2 h, 25 °C, incomplete curve, with: 25 nM fluorescein-Bim	–	Ki	~9.9 µM
[2H]c1cc(C)c(NC(=O)c2cnc(Nc3cc(N4CCCCC4)nc(C)n3)s2)c(Cl)c1	PDGFRA (Homo sapiens, UniProt P16234)	–	–	0.01 µM	–	inhibition	30 to 90%
O=C(O)C1=CCNCC1	BEST1	whole-cell patch clamp	HEK293 transiently expressing channel	concentration not given, membrane potential 20 mV	–	current density	7.73 pA/pF and 18.6 pA/pF and 7.16 pA/pF and 5.86 pA/pF and 26.9 pA/pF and 15.4 pA/pF
CCn1nc(C)c(CN2CCCC(C(=O)c3cccc(OC(C)C)c3)C2)c1C (stereo not shown)	Trypanosoma cruzi	reporter translation, Renilla luciferase mRNA translation	cell-free extract	40 µM	relative to: DMSO	inhibition	-7.3%
O=c1ccc2c(OCCCCO)c3ccoc3cc2o1	Kcna3 (Mus musculus, UniProt P16390)	Kv1.3 current, blocker	mouse L929 cells	concentration not given	–	channel block	inactive
c1coc(-c2n[nH]cc2-c2ccnc3ccccc23)c1	Extracellular signal-regulated kinase 1 (CEK1, Candida albicans, UniProt Q5A1D3)	kinase binding, MIB/MS competition	Candida albicans lysate	10 µM	relative to: DMSO, negative = stronger binding	log2 fold change	-0.19
Nc1ncnc2c1ncn2[C@@H]1O[C@H](COP(=O)(O)CP(=O)(O)OP(=O)(O)O)[C@@H](O)[C@H]1O	P2X purinoceptor 1 (P2RX1, Homo sapiens, UniProt P51575, E282A)	calcium influx	–	3.16 µM	relative to: ionomycin response	calcium influx	93.1% and 88.6% and 82.5%
CC(=O)N[C@H](C(=O)N[C@@H](CC(=O)O)C(=O)N1CCC[C@H]1C(=O)N1CCC[C@H]1C(=O)N[C@@H](CC(C)C)C(=O)N[C@@H](Cc1c[nH]cn1)C(=O)N[C@@H](CO)C(=O)N[C@H](C(=O)N[C@@H](C)C(N)=O)[C@@H](C)OP(=O)(O)O)C(C)C	PLK1 (Homo sapiens, UniProt P53350)	polo-box domain binding, isothermal titration calorimetry	–	concentration not given, 25 °C	–	binding entropy	-21.4 cal/(mol·K)
CCN(c1ccc(NC(=O)CCl)cc1)C(C)C.Cl	UCHL1	covalent, intact protein LC-MS	–	12.5 µM	–	labelling	11.7%
Nc1nc2c(ncn2[C@@H]2O[C@H](COP(=O)(O)O)[C@@H](O)[C@H]2O)c(=O)[nH]1	GUK1 (Homo sapiens, UniProt Q16774, R148A)	enzyme activity, NADH-coupled	–	15.62 µM	–	reaction rate	-0.048 s⁻¹ and 0.91 s⁻¹ and 0.244 s⁻¹
C=CC(=O)N1CCC(C(=O)N[C@H](C)c2ccc3c(c2)CCCC3)CC1	UCHL1	covalent, intact protein LC-MS	–	12.5 µM	–	labelling	7.94%
O=C1NCCN1CCN1CCC(c2cn(-c3ccc(F)cc3)c3ccc(Cl)cc23)CC1	Voltage-dependent P/Q-type calcium channel subunit alpha-1A	ion current, antagonist	HEK293	30 µM	–	inhibition	99%

A few entries again:
Structure (SMILES)	target or system	test	system	conditions	scale	endpoint	result
[2H]c1cc(C)c(NC(=O)c2cnc(Nc3cc(N4CCCCC4)nc(C)n3)s2)c(Cl)c1	PDGFRA (Homo sapiens, UniProt P16234)	–	–	0.01 µM	–	inhibition	30 to 90%
O=C(O)C1=CCNCC1	BEST1	whole-cell patch clamp	HEK293 transiently expressing channel	concentration not given, membrane potential 20 mV	–	current density	7.73 pA/pF and 18.6 pA/pF and 7.16 pA/pF and 5.86 pA/pF and 26.9 pA/pF and 15.4 pA/pF
CCn1nc(C)c(CN2CCCC(C(=O)c3cccc(OC(C)C)c3)C2)c1C (stereo not shown)	Trypanosoma cruzi	reporter translation, Renilla luciferase mRNA translation	cell-free extract	40 µM	relative to: DMSO	inhibition	-7.3%
